# Measured values pooled from the literature.
# Several values in a cell are separate wells, animals, samples, runs or records. ± marks the error that the study gave.
# HCK: Tyrosine-protein kinase HCK (HCK, Homo sapiens, UniProt P08631)
Structure (SMILES),target,test,setting,scale,measurement,value
CCn1cc(C(=O)O)c(=O)c2c(N)c(F)c(NC3CCCCC3)cc21,HCK,kinase activity,"0.1 µM, with: ATP at Km",,inhibition,0.2%
Nc1ncc(-c2cc(-c3cnn(CC(F)(F)F)c3)ncc2F)nc1C(=O)NC1CNCC(F)C1 (stereo not shown),HCK,enzyme activity,1 µM,baseline: DMSO control,remaining activity,76%
Cc1ccc(-c2c(/C=C(\C#N)C(=O)NC(C)C)n(CCCO)c3ncnc(N)c23)cc1,HCK,"cell-free assay, competition with immobilised ligand",1 µM,,remaining binding,57%
CC(C)=CC1OC(C)(C)C2C=C3C(=O)C(Cl)=CC(O)C3C3C(O)C4OC4C(=O)C132 (stereo not shown),HCK,"cell-free assay, competition with immobilised ligand",10 µM,,remaining binding,78%
O=C=[N][Ru-4]123([n]4c5ccc(O)cc5c5c6c(c7cc(F)c[n+]1c7c54)C(=O)NC6=O)[S+]1CC[S+]2CC[S+]3CC1 (stereo not shown),HCK,enzyme activity,"100 nM, human enzyme, with: 10 µM ATP",baseline: untreated,remaining activity,50%
CNC(=O)C1CCN(c2cc(C)c(F)cc2NC(=O)c2ccc(-c3cc(O)ccc3C)c(C)c2)CC1,HCK,"binding, competition with immobilised ligand",1 µM,,remaining binding,16%
Cc1cccc(O[C@H]2CCC[C@@H](C(C)CNCc3ccncc3)C2)c1 (relative stereo),HCK,cell-free assay,1 µM,,inhibition,6%
CC(C)n1nc(-c2ccc3cc(OCc4cccc(Cl)c4)ccc3c2)c2c(N)ncnc21,"HCK (Homo sapiens, UniProt P08631, Y522F)","SH3 domain accessibility, polyproline peptide pull-down",5 µM,,kinase retained,1 ± 0.5%
CNC(=O)C[C@H](Cc1ccc(C#N)cc1)NC(=O)c1cc(-c2ccc(CN[C@H](C)c3ccc(C)cc3)o2)ccc1Cl,HCK,"enzyme activity, inhibitor",1 µM,,activity vs control,100%
CCN1CCN(Cc2ccc(C(=O)Nc3ccc(C)c(NCc4cnc5[nH]ccc5c4OC)c3)cc2C(F)(F)F)CC1,HCK,"binding, competition with immobilised ligand",1 µM,,remaining binding,0.45%
COc1cc(Nc2nccc(-c3cnn4nc(OC)ccc34)n2)cc(C(F)(F)F)c1,HCK,"binding, competition with immobilised ligand",1 µM,,remaining binding,91%
COCC12C(=O)NC3C4(C(OC)CC1O)C1CC5(O)C(OC)C(O)C(OC(C)=O)(C1C5OC(=O)c1ccccc1)C3(O)C(OC)C24 (stereo not shown),HCK,"kinase activity, inhibitor, ProQinase kinase profiling",25 µM,baseline: control,remaining activity,113% and 101%
NC(=O)C[C@H]1CCc2sc3ncnc(O[C@H]4CC[C@H](N5CCOCC5)CC4)c3c21,HCK,"enzyme activity, inhibitor",10 µM,,inhibition,7%
C=CC(=O)N1CCc2ccc(-n3c(=O)ccc4cnc5ccc(-c6cnn(C)c6)cc5c43)cc21,HCK,KINOMEscan,1 µM,baseline: DMSO control,remaining binding,100%
C=CC(=O)Nc1cccc(-c2cnc3[nH]cc(C(=O)NC(C)(C)C)c3n2)c1,HCK,"enzyme activity, inhibitor",0.1 µM,,inhibition,10%
COc1ccc(NC(=O)Nc2ccc3c(c2)C(=O)N(C(C)CO)CC(C)C(CN(C)Cc2ccc4c(c2)OCO4)O3)cc1 (stereo not shown),HCK,,0.03 µM,baseline: control,remaining activity,100%

# Excerpt of the above:
Structure (SMILES),target,test,setting,scale,measurement,value
CNC(=O)C1CCN(c2cc(C)c(F)cc2NC(=O)c2ccc(-c3cc(O)ccc3C)c(C)c2)CC1,HCK,"binding, competition with immobilised ligand",1 µM,,remaining binding,16%
